Assay results collected from several papers.
Each line is one published result; not all experiments were run side by side. Values joined by “and” are separate records of one study, mostly repeats; a detail may differ. ± marks the error that the study gave.

Structure (SMILES)	cell line	assay	setting	scale	measurement	value
Cc1cccc(-c2cccc(C)n2)n1.Cc1cccc(-c2cccc(C)n2)n1.F[P-](F)(F)(F)(F)F.F[P-](F)(F)(F)(F)F.[Ru+2].c1ccc2c(-c3nc4c5cccnc5c5ncccc5c4[nH]3)cccc2c1	SK-MEL-28	cell viability	dark, 1% O2		EC50	107 ± 8 µM
O=C(O)c1ccc(-c2nc(-c3ccccc3Cl)c3sccn23)cc1	human CD34+ hematopoietic stem cells	megakaryocyte differentiation, flow cytometry, measured: CD61	10 µM, day 7, added: TPO	reference: control	fold change	1.09 fold and 1.16 fold and 1.08 fold and 1.14 fold and 1.05 fold and 1.11 fold and 1.07 fold
O=C(C[Se]C(=O)c1ccccc1Nc1cccc(C(F)(F)F)c1)Nc1cccc(C(F)(F)F)c1	NCI60 renal subpanel	cytotoxicity, inhibitor	five-dose		CC50	8.66 µM
C=CCN1C(=O)C(CC=C)(C(=O)OCC)Oc2cc(F)ccc21 (stereo not shown)	HEK293T	cytotoxicity, CCK-8	6.25 µM, 72 h		inhibition	0.04 ± 0.13%
[Cl-].[Cl-].[Ru+2].c1ccc(-c2ccccn2)nc1.c1ccc(-c2ccccn2)nc1.c1ccc2cc3nc4c5cccnc5c5ncccc5c4nc3cc2c1	SK-MEL-28		normoxia, added: green light 523 nm, 100 J/cm2	reference: dark over light EC50	phototoxicity index	670
O=C(C[Se]C(=O)c1ccco1)Nc1cccc(C(F)(F)F)c1	NCI60 prostate subpanel (PC-3, DU-145)	total growth inhibition, inhibitor	five-dose		mean TGI	14.7 µM
CC(C)Cc1ccc(C(C)C(=O)[O-])cc1.CC(C)Cc1ccc(C(C)C(=O)[O-])cc1.[Cu+2].c1ccncc1.c1ccncc1 (stereo not shown)	PC-3	cell growth or viability, MTT	48 h		GI50	88 µM
CC(C)Cc1ccc(C(C)C(=O)[Se]CC(=O)Nc2cccc(C(F)(F)F)c2)cc1 (stereo not shown)	NCI60 NSCLC subpanel	NCI60 five-dose screen			CC50	7.37 µM
NC(=S)N/N=C/c1ccc(OCc2cccc(F)c2)cc1	IMR-32		500 µg/mL, 24 h	higher = more activity	catalase activity (OD450)	0.301 a.u.
CC(C)CC(O)(CC(C)C)c1cn(C(=O)N2CCCC2)nn1	mouse T-cells	SILAC proteomics, measured: SERF2	1 nM, 6 h, unit not given	reference: DMSO	protein level	1.05
COc1ccccc1-c1ccncc1C(=O)Nc1nnc(OCc2ccc(Cl)cc2)s1	RPE-1 BRCA1 WT parental		0.5 µM, run 1	reference: untreated	colony survival	88.9%
CC(C)C[C@H](NC(=O)[C@@H]1CCCN1C(=O)[C@H](CCCCN)NC(=O)[C@@H](N)CO)C(=O)N1CCC[C@H]1C(=O)N[C@@H](CCC(=O)O)C(=O)N[C@H](C(=O)N[C@H](C(=O)N[C@@H](CC(=O)O)C(=O)N[C@@H](CCC(=O)O)C(=O)N[C@@H](Cc1ccc(O)cc1)C(=O)NCC(=O)NCCOCCOCCOCCOCCOCCOCCOCCOCCOCCOCCOCCOCCOCCOCCOCCOCCOCCOCCOCCOCCOCCOCCOCCOCCC(=O)N[C@@H](CCCCNC(=O)CC[C@H](C(=O)O)N1CCN(CC(=O)O)CCN(CC(=O)O)CC1)C(=O)N1CCN(CCCN(C)c2ccc3nccc(C(=O)NCC(=O)N4CC(F)(F)C[C@H]4C#N)c3c2)CC1)[C@@H](C)O)C(C)C	HT-1080 expressing human FAP	T cell-mediated target cell lysis, luciferase cytotoxicity	16 h, added: human donor T cells, E:T 5:1		EC50	2.12e-05 µM
O=C(C[Se]C(=O)c1cccs1)Nc1cccc(C(F)(F)F)c1	NCI60 leukemia subpanel	cell growth	10 µM, 48 h, one-dose		mean growth percent	-94.8%
CC(C)(C)C(=O)OCOP(=O)(OCOC(=O)C(C)(C)C)C1CCCN(O)C1=O (stereo not shown)	UACC-62				log TGI	-5.68 log M
Cc1cc(Oc2nc(N3CC[C@@H](c4ccncc4)C3)ncc2F)[nH]n1	PC-3	cell proliferation			IC50	95.5 µM
CC1CCC2C(C)C(OC(=O)CCC(=O)N3CCC(Nc4ccc(S(=O)(=O)NC(=O)c5ccc(N6CCN(CC7=C(c8ccc(Cl)cc8)CC(C)(C)CC7)CC6)cc5Oc5cnc6[nH]ccc6c5)cc4[N+](=O)[O-])CC3)OC3OC4(C)CCC1C32OO4 (stereo not shown)	THP-1	annexin V/PI flow cytometry, measured: annexin V+/PI-	0.4 µM, 24 h		early apoptotic cells	55.8%
CC(C)C[C@H](NC(=O)[C@H](CC(=O)O)NC(=O)CNC(=O)[C@@H](N)CCCNC(=N)N)C(=O)N[C@@H](C)C(=O)N[C@H](C(=O)N[C@@H](CC(C)C)C(=O)N[C@@H](CCCNC(=N)N)C(=O)N[C@@H](CCC(N)=O)C(=O)N[C@@H](CC(C)C)C(=O)N[C@@H](C)C(=O)N[C@@H](CCC(N)=O)C(=O)N[C@@H](CCC(=O)O)C(=O)N[C@@H](CC(=O)O)C(=O)NCC(=O)N[C@H](C(=O)N[C@H](C(=O)NCC(=O)N[C@H](C(=O)N[C@@H](CCCNC(=N)N)C(=O)NCCOCCOCCOCCOCCOCCOCCOCCOCCOCCOCCOCCOCCC(=O)N[C@@H](CS)C(N)=O)C(C)C)C(C)C)C(C)C)[C@@H](C)O	H661 lung large cell carcinoma	cell binding, phage binding, measured: output/input phage	10 min, 37 °C	reference: control phage	selectivity ratio	5.9 ± 1.9
O=C(C[Se]C(=O)c1ccccc1Nc1ccccc1)Nc1cccc(C(F)(F)F)c1	NCI60 renal subpanel	cytotoxicity, inhibitor	five-dose		CC50	6.48 µM
CSCC[C@H](NC(=O)[C@@H](NC(=O)[C@H](CCC(N)=O)NC(=O)[C@H](CO)NC(=O)[C@@H](N)C(C)C)[C@@H](C)O)C(=O)N[C@@H](CCCNC(=N)N)C(=O)N[C@@H](CCC(N)=O)C(=O)N[C@H](C(=O)N[C@@H](C)C(=O)N[C@H](C(=O)N1CCC[C@H]1C(=O)N[C@@H](CC(C)C)C(=O)N[C@@H](CC(C)C)C(=O)N[C@@H](Cc1c[nH]c2ccccc12)C(=O)N[C@@H](Cc1ccccc1)C(=O)N[C@@H](Cc1c[nH]c2ccccc12)C(=O)N[C@H](C(=O)NCC(=O)N[C@@H](CO)C(=O)N[C@@H](CC(C)C)C(=O)NCCOCCOCCOCCOCCOCCOCCOCCOCCOCCOCCOCCOCCC(=O)N[C@@H](CS)C(N)=O)[C@@H](C)O)C(C)C)[C@@H](C)O	H1650 lung adenocarcinoma	cell binding, phage binding, measured: output/input phage	10 min, 37 °C	reference: control phage	selectivity ratio	0.55 ± 0.14
Cc1[nH][n+]([Pt-2]([Cl])([n+]2[nH]c(C)c(CSC3CCCCC3)c2C)[n+]2[nH]c(C)c(CSC3CCCCC3)c2C)c(C)c1CSC1CCCCC1.[Cl-]	Jurkat	cytotoxicity		reference: IC50 HEK293 over IC50 Jurkat	selectivity index	12.5
CCOC(=O)C1(Cc2ccccc2)Oc2cc(F)ccc2N(Cc2ccccc2)C1=O (stereo not shown)	HEK293T	cytotoxicity, CCK-8	25 µM, 72 h		inhibition	0.21 ± 0.22%
Cc1c(Cl)cccc1Nc1ccccc1C(=O)[Se]CC(=O)Nc1cccc(C(F)(F)F)c1	NCI60 prostate subpanel (PC-3, DU-145)	cytotoxicity, inhibitor	five-dose		CC50	5.03 µM
CC(=O)NCSC[C@H](NC(=O)[C@@H]1CCCN1C(=O)[C@H](C)NC(=O)[C@@H](NC(=O)CNC(=O)[C@@H](NC(=O)[C@H](Cc1c[nH]c2ccccc12)NC(=O)[C@H](C)NC(=O)CNC(=O)[C@H](CO)NC(=O)[C@H](C)NC(=O)[C@@H]1CCCN1C(=O)[C@H](Cc1c[nH]c2ccccc12)NC(=O)[C@H](C)NC(=O)[C@H](C)NC(=O)[C@@H](N)Cc1ccc(O)cc1)[C@@H](C)O)[C@@H](C)O)C(=O)N[C@@H](CO)C(=O)N[C@@H](C)C(=O)NCC(=O)N[C@H](C(=O)NCCOCCOCCOCCOCCOCCOCCOCCOCCOCCOCCOCCOCCC(=O)N[C@@H](CS)C(N)=O)[C@@H](C)O	H2087	phage binding	10 min, 37 °C	reference: control phage	selectivity ratio	79 ± 42
O=C(C[Se]C(=O)c1ccccc1)Nc1cccc(C(F)(F)F)c1	NCI60 breast subpanel mean	cell growth			TGI	8.5 µM
CC(C)[C@H](NC(=O)[C@H](CCCNC(=N)N)NC(=O)[C@@H]1CCCN1C(=O)[C@@H](NC(=O)[C@H](C)NC(=O)[C@H](Cc1ccc(O)cc1)NC(=O)[C@H](CCC(N)=O)NC(=O)[C@H](CCCCN)NC(=O)[C@H](CCCNC(=N)N)NC(=O)[C@@H]1CCCN1C(=O)[C@H](CCC(=O)O)NC(=O)[C@@H](NC(=O)[C@H](C)N)[C@@H](C)O)[C@@H](C)O)C(=O)N[C@@H](Cc1ccccc1)C(=O)N[C@@H](Cc1c[nH]c2ccccc12)C(=O)N[C@H](C(=O)N[C@@H](CC(=O)O)C(=O)N[C@@H](C)C(=O)N1CCC[C@H]1C(=O)NCC(=O)NCCOCCOCCOCCOCCOCCOCCOCCOCCOCCOCCOCCOCCC(=O)N[C@@H](CS)C(N)=O)[C@@H](C)O	HCC515	phage binding		reference: targeting over control phage	selectivity ratio	2.2 ± 0.68

A few entries again:
Structure (SMILES)	cell line	assay	setting	scale	measurement	value
CSCC[C@H](NC(=O)[C@@H](NC(=O)[C@H](CCC(N)=O)NC(=O)[C@H](CO)NC(=O)[C@@H](N)C(C)C)[C@@H](C)O)C(=O)N[C@@H](CCCNC(=N)N)C(=O)N[C@@H](CCC(N)=O)C(=O)N[C@H](C(=O)N[C@@H](C)C(=O)N[C@H](C(=O)N1CCC[C@H]1C(=O)N[C@@H](CC(C)C)C(=O)N[C@@H](CC(C)C)C(=O)N[C@@H](Cc1c[nH]c2ccccc12)C(=O)N[C@@H](Cc1ccccc1)C(=O)N[C@@H](Cc1c[nH]c2ccccc12)C(=O)N[C@H](C(=O)NCC(=O)N[C@@H](CO)C(=O)N[C@@H](CC(C)C)C(=O)NCCOCCOCCOCCOCCOCCOCCOCCOCCOCCOCCOCCOCCC(=O)N[C@@H](CS)C(N)=O)[C@@H](C)O)C(C)C)[C@@H](C)O	H1650 lung adenocarcinoma	cell binding, phage binding, measured: output/input phage	10 min, 37 °C	reference: control phage	selectivity ratio	0.55 ± 0.14
